Assay results of several laboratories.
Compare with care: the assays were run in different laboratories. ± marks the error that the study gave. ≈ marks a conversion by molar mass, not a printed value.
Organism: Escherichia coli

SMILES = CCC(C)CCC(=O)N[C@H](CCN)C(=O)N[C@@H](CCN)C(=O)N[C@@H](CCN)C(=O)N[C@@H](CC(C)C)C(=O)N[C@H](Cc1ccccc1)C(=O)N[C@@H](CCN)C(=O)N[C@@H](CCN)C(=O)N[C@@H](CC(C)C)C(N)=O (stereo partly shown); test system = ATCC 10546; conditions = 24 h, 37 °C; endpoint = MBC; result = 8 µM
SMILES = C=CS(=O)(=O)NCCCCCCCCOCc1cn(CCCCCCCCNS(=O)(=O)C=C)nn1; test = growth, turbidity OD600; test system = ΔtolC; conditions = 24 h; endpoint = IC50; result = > 100 µM
SMILES = C#CCCCC(=O)N[C@H]1CCOC1=O; test = LuxR reporter, antagonist; test system = DH5α sensor strain; conditions = 1 µM, added: OHHL 200 nM; endpoint = inhibition; result = 46 ± 2%
SMILES = COc1c(NC(=O)c2ccc(NC(=O)c3ccc(NC(=O)[C@H](CC#N)NC(=O)c4ccc(NC(=O)/C(C)=C/c5ccc(O)cc5)cc4)cc3)c(OC)c2O)ccc(C(=O)O)c1O; test system = clones expressing transporters; conditions = concentration not given; how to read = reference: empty vector; endpoint = MIC fold change; result = > 16 fold
SMILES = C=CC(=O)NCCCCCCOCc1cn(CCCCCCNC(=O)C=C)n[n+]1C; test = growth, turbidity OD600; test system = ΔtolC; conditions = 24 h; endpoint = IC50; result = > 100 µM
SMILES = COc1c(NC(=O)/C(C)=C/c2ccc(O)cc2)ccc(C(=O)N[C@@H](CC#N)C(=O)Nc2ccc(C(=O)Nc3ccc(C(=O)Nc4ccc(C(=O)O)cc4)c(O)c3OC)c(O)c2OC)c1O; test system = clones expressing hydrolases; conditions = concentration not given; how to read = reference: empty vector; endpoint = MIC fold change; result = 4 fold
SMILES = COc1ccc2c(c1OC)C[NH+]1CCc3cc4c(cc3C1C2)OCO4.[Cl][Fe-]([Cl])([Cl])[Cl] (stereo not shown); conditions = 24 h, 37 °C; endpoint = MIC50; result = 1280 µM
SMILES = C#CCN1C(=O)C(CC#C)(C(=O)OCC)Oc2ccccc21 (stereo not shown); test = bacterial growth; test system = BL21(DE3); conditions = 100 µM, 4 h; endpoint = OD600; result = > 0.9
SMILES = CC[C@H](C)[C@H](NC(=O)[C@H](CCCNC(=N)N)NC(=O)[C@H]1CCCN1C(=O)[C@H](Cc1ccc(O)cc1)NC(=O)[C@@H](NC(=O)[C@@H](NC(=O)[C@H](CCCNC(=N)N)NC(=O)[C@H](Cc1ccccc1)NC(=O)[C@@H](NC(=O)[C@H](Cc1c[nH]c2ccccc12)NC(=O)[C@H](Cc1c[nH]c2ccccc12)NC(=O)c1ccccc1)C(C)C)C(C)C)C(C)C)C(=O)N[C@H](C(=O)N[C@@H](Cc1ccc(O)cc1)C(=O)N[C@@H](CCCNC(=N)N)C(=O)N[C@@H](CCCNC(=N)N)C(=O)N[C@H](C(=O)N[C@@H](CCCNC(=N)N)C(=O)N[C@@H](Cc1c[nH]c2ccccc12)C(=O)N[C@H](C(=O)NCC(=O)N1CCC[C@H]1C(=O)N[C@@H](CCCCN)C(=O)N[C@@H](CCCCN)C(N)=O)[C@@H](C)O)C(C)C)C(C)C; test = cell growth; test system = DH5α; endpoint = IC50; result = 12.4 µM
SMILES = C[C@H](N)[C@@H](CCCCCCCCCCCCCCC(=O)CCCCCCC[C@@H](O)[C@@H](C)N)O[C@@H]1O[C@H](CO)[C@H](O)[C@H](O)[C@H]1O; test = microbial growth, resazurin; test system = ATCC10536; conditions = 50 µM; endpoint = inhibition; result = 99%
SMILES = CN(C)S(=O)(=O)c1ccc(S(=O)(=O)N2CCC(n3c(=O)[nH]c4ccccc43)CC2)cc1; test system = Keio wild type; conditions = concentration not given, 48 h; endpoint = streptomycin concentration; result = 3.92 µg/mL
SMILES = C=CC(=O)NCCCCCCCCOCc1cn(CCCCCCCCNC(=O)C=C)nn1; test = growth, turbidity OD600; test system = ΔtolC; conditions = 24 h; endpoint = IC50; result = > 100 µM
SMILES = Cc1ccc(C(=O)Sc2cccccc2=O)cc1; test = microbial growth, broth dilution; test system = ATCC35218; endpoint = MIC80; result = 24.1 µM (≈ 6.18 µg/mL)
SMILES = C=C(C)C(=O)NCCCCCCCCCCOCc1cn(CCCCCCCCCCNC(=O)C(=C)C)nn1; test = growth, turbidity OD600; test system = ΔtolC; conditions = 24 h; endpoint = IC50; result = > 100 µM
SMILES = CC(C)C[C@H](NC(=O)[C@H](CCN)NC(=O)[C@H](CCN)NC(=O)[C@@H](Cc1ccccc1)NC(=O)[C@H](CC(C)C)NC(=O)[C@H](CCN)NC(=O)[C@H](CCN)NC(=O)[C@@H](CCN)NC(=O)[C@@H](N)CS)C(N)=O; test system = ATCC 10546; conditions = 24 h, 37 °C; endpoint = MBC; result = 32 µM
SMILES = CC[C@H](C)[C@H](NC(=O)[C@H](Cc1c[nH]c2ccccc12)NC(=O)c1ccccc1)C(=O)N[C@@H](CCCNC(=N)N)C(=O)N[C@@H](Cc1ccc(O)cc1)C(=O)N[C@@H](CCCCN)C(=O)N[C@@H](Cc1c[nH]c2ccccc12)C(=O)N[C@H](CCCNC(=N)N)C(=O)N[C@@H](CCCNC(=N)N)C(=O)N[C@@H](CCCCN)C(=O)N[C@@H](CCCCN)C(=O)N[C@H](C(=O)N[C@@H](CCCNC(=N)N)C(=O)N[C@@H](Cc1ccc(O)cc1)C(=O)N[C@@H](Cc1c[nH]c2ccccc12)C(=O)N[C@H](C(=O)NCC(=O)N1CCC[C@H]1C(N)=O)[C@@H](C)O)C(C)C; test = growth; test system = DH5α; conditions = 16 h, 37 °C; endpoint = IC50; result = 15.8 µM
SMILES = C=CS(=O)(=O)NCCCCCCCCOCc1cn(CCCCCCCCNS(=O)(=O)C=C)n[n+]1C; test = growth, turbidity OD600; test system = ΔtolC; conditions = 24 h; endpoint = IC50; result = > 100 µM
SMILES = O=C(O)c1ncsc1-c1ccccc1; test system = DH5α with VIM-2 plasmid; conditions = 10 µg/mL, added: meropenem; endpoint = MIC of meropenem; result = 2 µg/mL
SMILES = CC[C@H](C)CCCCC(=O)N[C@@H](CCN)C(=O)N[C@H](C(=O)N[C@@H](CCN)C(=O)N[C@H]1CCNC(=O)[C@H]([C@@H](C)O)NC(=O)[C@H](CCN)NC(=O)[C@H](CCN)NC(=O)[C@H](CC(C)C)NC(=O)[C@@H](CC(C)C)NC(=O)[C@H](CCN)NC1=O)[C@@H](C)O; test = daily serial passaging; test system = ATCC 8739; conditions = highest sub-MIC, 25 days; how to read = reference: initial MIC; endpoint = MIC fold change; result = 1.37
SMILES = C[n+]1nn(CCCCN2C(=O)C=CC2=O)cc1COCCCCN1C(=O)C=CC1=O; test = growth, turbidity OD600; test system = ΔtolC; conditions = 24 h; endpoint = IC50; result = > 100 µM
SMILES = CC[C@H](C)[C@H](NC(=O)[C@H](CCCCN)NC(=O)[C@H](CCCCN)NC(=O)[C@H](Cc1ccccc1)NC(=O)[C@H](Cc1ccccc1)NC(=O)[C@H](CCCCN)NC(=O)[C@H](CCCCN)NC(=O)[C@H](Cc1ccccc1)NC(=O)[C@H](CCCNC(=N)N)NC(=O)[C@@H](N)CCCCN)C(=O)N[C@@H](CCCCN)C(=O)N[C@@H](CCCCN)C(=O)N[C@@H](CO)C(=O)N[C@H](C(=O)N[C@@H](CCCCN)C(=O)N[C@@H](CCCCN)C(=O)N[C@@H](CCCNC(=N)N)C(=O)N[C@H](C(=O)N[C@@H](CCCCN)C(=O)N[C@@H](CCCCN)C(=O)N[C@@H](CC(C)C)C(=O)N[C@@H](Cc1ccccc1)C(=O)N[C@@H](CCCCN)C(=O)N[C@@H](CCCCN)C(=O)N1CCC[C@H]1C(=O)N[C@@H](CCCNC(=N)N)C(=O)N[C@H](C(=O)N[C@H](C(=O)N1CCC[C@H]1C(=O)N[C@H](C(=O)N[C@@H](CO)C(=O)N[C@H](C(=O)N1CCC[C@H]1C(=O)N[C@@H](Cc1ccccc1)C(=O)O)[C@@H](C)CC)[C@@H](C)CC)[C@@H](C)CC)C(C)C)C(C)C)C(C)C; test system = E24 clinical isolate; conditions = 20 h; endpoint = MBC; result = 8 µg/mL
SMILES = O=c1n(CCNCCOS(=O)(=O)c2ccccc2)c(=O)n(S(=O)(=O)c2ccccc2)c(=O)n1S(=O)(=O)c1ccccc1; test = broth microdilution; endpoint = MLC; result = 8 ± 2 µg/mL

Excerpt of the above:
SMILES = COc1ccc2c(c1OC)C[NH+]1CCc3cc4c(cc3C1C2)OCO4.[Cl][Fe-]([Cl])([Cl])[Cl] (stereo not shown); conditions = 24 h, 37 °C; endpoint = MIC50; result = 1280 µM
SMILES = CC[C@H](C)[C@H](NC(=O)[C@H](Cc1c[nH]c2ccccc12)NC(=O)c1ccccc1)C(=O)N[C@@H](CCCNC(=N)N)C(=O)N[C@@H](Cc1ccc(O)cc1)C(=O)N[C@@H](CCCCN)C(=O)N[C@@H](Cc1c[nH]c2ccccc12)C(=O)N[C@H](CCCNC(=N)N)C(=O)N[C@@H](CCCNC(=N)N)C(=O)N[C@@H](CCCCN)C(=O)N[C@@H](CCCCN)C(=O)N[C@H](C(=O)N[C@@H](CCCNC(=N)N)C(=O)N[C@@H](Cc1ccc(O)cc1)C(=O)N[C@@H](Cc1c[nH]c2ccccc12)C(=O)N[C@H](C(=O)NCC(=O)N1CCC[C@H]1C(N)=O)[C@@H](C)O)C(C)C; test = growth; test system = DH5α; conditions = 16 h, 37 °C; endpoint = IC50; result = 15.8 µM
